Assay results collected from several papers.
Protocols differ between the studies behind these lines. ± gives the spread as reported.
Target: Dual specificity mitogen-activated protein kinase kinase 6 (MAP2K6, Homo sapiens, UniProt P52564)
One construct used (P52564 1-334): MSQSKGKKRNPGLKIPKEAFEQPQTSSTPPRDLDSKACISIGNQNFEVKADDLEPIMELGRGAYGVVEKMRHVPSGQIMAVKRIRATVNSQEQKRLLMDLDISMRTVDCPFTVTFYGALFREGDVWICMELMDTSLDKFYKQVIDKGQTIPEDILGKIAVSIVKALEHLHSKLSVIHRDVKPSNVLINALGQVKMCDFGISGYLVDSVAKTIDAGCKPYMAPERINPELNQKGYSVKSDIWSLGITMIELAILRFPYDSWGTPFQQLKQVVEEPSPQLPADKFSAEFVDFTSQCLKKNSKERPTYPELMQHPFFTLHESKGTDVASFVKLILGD

SMILES | test | system | conditions | endpoint | value
CC/C(=N\NC(=O)NCc1cccc(O)c1)c1ccc(O)c(C)c1O | kinase activity | – | 0.1 µM | inhibition | 2.7%
O=C1NC(=O)/C(=C/c2ccc(-c3ccc(F)cc3O)o2)S1 | enzyme activity | – | 10 µM | remaining activity | 99%
C=CC(=O)N1CCC(COCC(=O)N2CCN(c3nc(-c4cnc(N)nc4C(F)F)nc(N4CCOC[C@@H]4C)n3)CC2)CC1 | KINOMEscan | – | 1 µM | remaining binding | 100%
C=CC(=O)N1CCC([C@@H]2CCNc3c(C(N)=O)c(-c4ccc(Oc5ccccc5)cc4)nn32)CC1 | kinase activity, inhibitor, HotSpot radiometric | – | 100 nM, together with: ATP 10 µM | remaining activity | 99.6 ± 1.4%
COc1cc(F)ccc1-c1ncnc(Nc2cccc(C[S@](C)(=N)=O)c2)n1 | kinase activity | – | 10 µM, together with: 10 µM ATP | remaining activity | 120%
COc1ccc(F)cc1C(=O)NCc1ccc(-c2nn([C@@H](C)C(F)(F)F)c(N)c2C(N)=O)cc1 | kinase activity, inhibitor, HotSpot radiometric | – | 1000 nM, together with: ATP at Km | remaining activity | 69.4 ± 4.7%
O=C(NC1CCC1)c1ccc2nc(-c3cccc(NS(=O)(=O)NCCN4CCCCC4)c3)cn2c1 | enzyme activity | – | 10 µM | remaining activity | 91%
C=CC(=O)N1CCC[C@@H](n2nc(-c3ccc(Oc4ccccc4)cc3)c3c(N)ncnc32)C1 | kinase activity, inhibitor, HotSpot radiometric | – | 100 nM, together with: ATP 10 µM | remaining activity | 91.1 ± 0.1%
CC[C@@H]1[C@H](F)C(=O)N[C@@H]1COc1nccc2cc(C(N)=O)c(OC)cc12 | ATP-site probe binding, ActivX profiling | THP-1 cell lysate | 0.04 mM, Lys1 site | inhibition | -4.9%
